Assay results pooled from the literature.
Numbered parts are unrelated; each lists some results of a single study. Changes are numbered by the printed parent chain.

Set 1 — technique: protein-binding microarray; molecule type: double-stranded DNA, one strand shown; matrix: in vitro; concentration: 250 nM; notes: 60-bp whole probe; with: salmon DNA 0.4 mg/ml; relative to: random background probes; reading: higher = stronger binding; all sequences stand within: GCCTAGCAC … GTCTTGATTCGCTTGACGCTGCTG
Target: Interferon regulatory factor 5, full length, phosphomimetic (IRF5, Homo sapiens, UniProt Q13568-2, residues 1-514, K96S/S451D/S453D/S456D/S462D)
Sequence | log fluorescence
GACGATTTCGGGAATCGAGACGTGCTA | 2.42 z-score
GACGATCTTAGTATCGAGACGTGCTAG | 2.14 z-score
TCATCTTTCTGTTTTCTACTGTGCTAG | 5.47 z-score
GATGATCTCAGTCTCGAGACGTGCTAG | 0.079 z-score
TATTGTTTCCTCTTTCACTGGTGCTAG | 3.69 z-score
TTAGTACTGGGGTATCGATTAGTGCTA | 2.13 z-score
TTAGGTATCGGGTTTAGGTTAGTGCTA | 3.36 z-score
AAATTCTATTCTCTCAATTTGTGCTAG | 1.24 z-score
GACTGTTTCGGTTTCGGGACGTGCTAG | 10.5 z-score
TTAGCTATCGGACTGGGTTAGTGCTAG | 1.86 z-score
GACGATTTCGGGTATCTAGACGTGCTA | 4.19 z-score
GACGGCCTGCTTCTCCTGACGTGCTAG | -0.583 z-score
GACGGACTGCTTTCCCTGACGTGCTAG | 0.0411 z-score
GACGGTCTCGCTATCGGGACGTGCTAG | 0.726 z-score
CCAACTCGCCTTTTTTGTTGGTGCTAG | 0.0151 z-score
GACGATATCGGGTATCGATACGTGCTA | 5.75 z-score
GGTCTTCTGGGCTGTTTGGTTGTGCTA | -0.438 z-score
GACGATCTCAGTCTGGAGACGTGCTAG | -0.208 z-score
TGAGATTTCAGTTCCGATTAGTGCTAG | 2.3 z-score
TCATGTTTCTCAAATGTTACTGTGCTA | 1.23 z-score
GACTGTCTCGGACTGGGGACGTGCTAG | -0.44 z-score
TACGGACTGGGGTTTCGGGACGTGCTA | 1.11 z-score
TGAGTGAAAGGCCCATACATGTGCTAG | 0.178 z-score
TCACTCTTGCTTTTTAGACTGTGCTAG | 0.608 z-score
TTAGAACTGAGTTTCGCTTAGTGCTAG | 6.59 z-score

Set 2 — technique: aptamer microarray, sandwich; molecule type: DNA with 2'F-ANA; matrix: in vitro; concentration: 200 nM; with: Cy3 exosite-II aptamer, 400 nM; reading: higher = stronger binding; sequence: GGTTGGTGTGGTTGG
Target: Prothrombin, mature alpha-thrombin (F2, Homo sapiens, UniProt P00734)
Notes: whole 15-mer aptamer, many near background
Modification | mean fluorescence intensity [a.u.]
2'F-ANA at 6 7 9 10 11 13 14 | 97.8
2'F-ANA at 1 2 4 5 6 9 12 13 14 15 | 46.8
2'F-ANA at 3 5 7 8 9 11 12 13 | 180
2'F-ANA at 2 4 5 7 8 9 10 11 12 13 | 49.2
2'F-ANA at 2 3 5 6 10 11 12 | 74.6
2'F-ANA at 2 3 4 5 8 9 10 12 15 | 55.2
2'F-ANA at 2 3 4 8 9 11 12 14 | 302
2'F-ANA at 3 4 9 10 11 12 13 15 | 220
2'F-ANA at 1 2 4 5 8 10 11 12 14 | 49
2'F-ANA at 1 4 6 8 9 15 | 133
2'F-ANA at 1 2 4 5 6 9 10 11 12 13 14 15 | 53.5
2'F-ANA at 2 4 7 8 9 11 12 15 | 784
2'F-ANA at 2 3 5 6 7 11 12 14 15 | 81.5
2'F-ANA at 1 3 4 5 6 7 8 9 12 15 | 138
2'F-ANA at 2 3 6 8 9 10 11 15 | 265
2'F-ANA at 1 2 5 9 11 12 13 14 | 48.6
2'F-ANA at 1 6 8 9 13 | 127
2'F-ANA at 2 4 5 6 7 8 9 15 | 82.2
2'F-ANA at 2 6 7 9 10 11 12 | 145

Set 3 — technique: protein binding microarray; molecule type: double-stranded DNA, one strand shown; matrix: in vitro; concentration: not given; relative to: not given; reading: higher = stronger binding
Target: Histone acetyltransferase KAT6A, both winged helices, GST fusion (KAT6A, Homo sapiens, UniProt Q92794, residues 1-181)
Notes: 8-mer, flanks averaged, mean of 2 arrays, mostly near background
Construct (chain): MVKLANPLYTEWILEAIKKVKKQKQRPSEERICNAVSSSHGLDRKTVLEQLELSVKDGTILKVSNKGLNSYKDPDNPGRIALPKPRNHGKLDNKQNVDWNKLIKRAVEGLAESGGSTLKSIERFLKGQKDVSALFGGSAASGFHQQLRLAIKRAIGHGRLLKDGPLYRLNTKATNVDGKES
Sequence | E-score
ACCTCCAG | -0.147
ACAAGCTA | -0.257
AGTATCTC | 0.00629
GGCTAGGA | -0.194
GCTCGTAC | 0.0368
TAACTAGA | 0.0221
GAAAGAGA | -0.125
AAATCGGA | -0.0166
CCGTTACG | 0.3
AGAAGCCG | 0.169
ACCGGATC | 0.0424
ACTACGTC | -0.0389
CTGGAACC | 0.0228
CACAGTTC | 0.00634
ATAACAGC | 0.0223
CTCCTAAA | -0.294
ACGAACCC | 0.142
GCCATTAA | -0.119
GGGTCGGA | 0.0781
GAGCTATA | -0.214
CCACCCGC | 0.223
AAGTGTCT | -0.192
CCGACTCC | 0.0583
TACTTGGA | -0.0969
AGGGCAGA | -0.173

Set 4 — target: CCNA2, cyclin fold, Cln2 fusion (human); technique: yeast growth competition, sequencing; matrix: yeast; notes: weak parent motif; relative to: not given; reading: higher = stronger binding
Starting sequence: MASTL docking peptide (human); PMIAKNLMCELDE
Substitution | normalised enrichment score
PMAAKNLMCELDE [I3A] | 0.0427
PMIAKNLMCEADE [L11A] | -0.262
PMIAKNLMCELYE [D12Y] | -0.31
PMIAKDLMCELDE [N6D] | -0.144
PMIAKNLMKELDE [C9K] | -0.0637
PMSAKNLMCELDE [I3S] | -0.438
PMTAKNLMCELDE [I3T] | -0.107
PMIAKGLMCELDE [N6G] | -0.237
PMIAKNLMCCLDE [E10C] | 0.0949
PMIAKNVMCELDE [L7V] | -0.556
PMIAKVLMCELDE [N6V] | -0.0235
PMIAKNLMCTLDE [E10T] | -0.393
PMIAKNLMVELDE [C9V] | -0.306
PMIAKNLMCELQE [D12Q] | 0.188
PMIAKNPMCELDE [L7P] | -0.203
PAIAKNLMCELDE [M2A] | 0.114
PQIAKNLMCELDE [M2Q] | 0.296
PMIAKNLPCELDE [M8P] | -0.207

Set 5 — technique: DHFR PCA, deep sequencing; matrix: yeast; with: (+)-ABA 1.4 µM; relative to: wild-type fitted maximum; reading: higher = stronger binding
Target: ABI1, truncated, D143A, DHFR fusion (Arabidopsis thaliana)
Notes: methotrexate growth selection, single substitutions
Starting sequence: PYL1, truncated, DHFR fusion (Arabidopsis thaliana); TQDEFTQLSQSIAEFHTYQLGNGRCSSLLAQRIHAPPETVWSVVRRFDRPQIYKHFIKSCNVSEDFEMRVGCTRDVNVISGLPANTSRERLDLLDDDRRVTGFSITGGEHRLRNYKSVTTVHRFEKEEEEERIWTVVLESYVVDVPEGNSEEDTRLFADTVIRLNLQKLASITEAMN
Substitution | relative binding score
I79A | 32.1%
S27N | 50.7%
S63M | 27.1%
L8N | -30.8%
D75V | 80.4%
D96L | -2.03%
T6G | 68%
P50C | -9.19%
F103P | -5.74%
A158S | -9.79%

Set 6 — technique: RNA Bind-n-Seq; molecule type: RNA; matrix: in vitro; concentration: 365 nM; relative to: no-protein control; reading: higher = stronger binding
Target: RNA binding protein fox-1 homolog 2, RRM domain, GST-SBP tag (RBFOX2, Homo sapiens, UniProt O43251-10, residues 100-194)
Notes: natural RNA segment, single round, ends assumed
Residues (chain): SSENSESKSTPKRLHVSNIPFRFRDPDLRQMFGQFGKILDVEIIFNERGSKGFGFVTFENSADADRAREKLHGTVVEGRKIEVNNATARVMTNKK
Sequence | RBNS enrichment (R)
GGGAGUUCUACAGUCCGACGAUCGUACAAUGUUAUUUCAAUCUUAUAUAAAAAUGGUCUUCUGAAAAAUCUAUAAAACAGGCCUGAGAAGAUAGUUCUGGUCUUGUUCUGACUGUGGUAACUAGCUGUGACCAUGGAAUUCUCGGGUGCCAA | 0.839
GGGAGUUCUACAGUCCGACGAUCUGGAUGAAGCCUGAGAGGCCAGAUUCCCUGUCACCUCUGCCCAGCUCAGCUGGAUCAGGCAUCUACACACCCCAUUCUUCCAGGGGCCAGUGUCCACACCUGCAUGUAGGUGGAAUUCUCGGGUGCCAA | 3.28
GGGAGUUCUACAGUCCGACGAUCACGUCCGGCACGUAACUGAUCGGAGCAUUCUGGGAAGAAGUAAUUUAUUCCUUUUCGGCAGCCGAAUAAAAAAAAAUUUAAAAAAAUGUGCGAGCUAAUAUGGCAAAACAUGGAAUUCUCGGGUGCCAA | 0.774
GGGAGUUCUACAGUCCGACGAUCUGAUUCAAUAUUAAUCCUCGGGUCUUGAACUGGACAUCCUAAUGAUGCAAUUAUGUAACCAUUAAGCUGAUUCCGAGGCUGGCAGGCUAGGGCCGCCCCUCUGGAAAGGUUGGAAUUCUCGGGUGCCAA | 0.37
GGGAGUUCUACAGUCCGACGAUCCCAGCAUGGAUGGUGGAACCACAGUACCUCUUACACUCCCUGUGGCUCCAACUUCAGGAAAUAAAUUUCCCAUUGCGAGGGACCCAGCUCUGUUUCUGCUGCUUCCAUCAUGGAAUUCUCGGGUGCCAA | 0.909
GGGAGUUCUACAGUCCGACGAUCUCACCAUACAUCUUGGAAUUCUGUAAGUUUGUAUCCUAACUUGCCCAUAUUCUAAAUUUACAUAGUUUAUUUUCAGCCUUGAGUUGGAUGUUUUUUAGAAAUAUGCCCAGUGGAAUUCUCGGGUGCCAA | 0.408
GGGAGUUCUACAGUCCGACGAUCAGGACUCACCACCGUGGUCAGACCAUGCCCAGUGUGCCCAGGGCAAAGUUGGAUGGGCAGGUGCAGACGAGGCCCAGCCUUCAUCCUGCUUUCCCUCGCAAGCCCUUCUAUGGAAUUCUCGGGUGCCAA | 0.204
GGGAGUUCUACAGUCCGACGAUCUUGUGUGAUAAGCACUAAGCAGUCAGUCCCCUGGGGGAAUCUGGCAUAAUUCGGCUAUAAAUGUAGCAAUGCUUGGAAAGGUAGUCAUCAAAUGAGACUAUUUGAGGGGAUGGAAUUCUCGGGUGCCAA | 0.303
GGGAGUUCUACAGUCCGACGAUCGAAGAAAAAGCUCCACUAAAGAUGAAUUUGGUAGCUUCAUUUGAGCAGAGUCUAUGAUUCCUACUCUUCUACUUCUUGUACUGAUAUAAGGGUUUGUUUUGUUUUGUUUUUGGAAUUCUCGGGUGCCAA | 2.37
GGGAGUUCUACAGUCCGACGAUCCUUUGAGUCCUCCAAGAAAGAUGAUACUUGGUUCAUUUCAAAAAACCAAAUGCAGACAAAUGGGAGAACCAGUUCCCCAGCUUAUGUUAGCAUAGUCAACAGCGAGCAUAUGGAAUUCUCGGGUGCCAA | 0.314
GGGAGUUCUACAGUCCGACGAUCUAAAAAUAUUCAUCUACCAUUACUGUUAUUUGCUGAUUUUGUUUUAUUUUUUGAUGGUAAUAUUCUAUCCUUAUGACACUAUUGCAACCAAAUUGGCUUUACCAUCUUGGUGGAAUUCUCGGGUGCCAA | 1.24
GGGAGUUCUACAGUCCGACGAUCAUUUAGUCAAUUUACCGUGUCUUAAUUUAAUCUUUGUACACCUUCCAUUUUUAAGUGCUUAAAUGAGUACUAUAUUGCAAUAAAAAAUGUAGCGAUAUUAAAAAAAAUGUUGGAAUUCUCGGGUGCCAA | 0.409

A few entries again (set 4):
Substitution | normalised enrichment score
PMIAKNLMCCLDE [E10C] | 0.0949
PMIAKNVMCELDE [L7V] | -0.556
PMIAKVLMCELDE [N6V] | -0.0235
PMIAKNLMCTLDE [E10T] | -0.393
PMIAKNLMVELDE [C9V] | -0.306
PMIAKNLMCELQE [D12Q] | 0.188
PMIAKNPMCELDE [L7P] | -0.203
PAIAKNLMCELDE [M2A] | 0.114
